Measurements gathered from unrelated publications.
A part holds a random share of what one study measured.

Series 1
Target: Histone acetyltransferase KAT6A, winged helix 1, GST fusion (KAT6A, Homo sapiens, UniProt Q92794, residues 1-85)
Method: protein binding microarray
Molecule type: double-stranded DNA, one strand shown
Sample: in vitro
Concentration: not given
Notes: 8-mer, flanks averaged, mean of 2 arrays, mostly near background
Reference: not given
Reading: higher = stronger binding
Endpoint: E-score
Construct (chain): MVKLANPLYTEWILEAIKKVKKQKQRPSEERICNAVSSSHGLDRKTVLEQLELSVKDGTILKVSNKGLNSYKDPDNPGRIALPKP
AGTGGCTC: -0.0207
ATACAACG: -0.0284
ATGCCAAC: -0.114
GGAGGGCA: -0.0934
ACGGCATC: 0.367
CAAACAAC: -0.162
AACGCATA: 0.0399
TACTTGAA: -0.268
GAACGTAC: -0.0125
GTCCTTCA: -0.0698
CGCATACA: 0.171
CCGAGCAC: 0.0103
AGACGATA: -0.182
CGCTTCGA: 0.166
ATACTCTG: 0.0366
CTCCAAGC: -0.109
AAGGTATT: 0.000705
CATTTGAA: -0.0468
GCGAAAAC: 0.138
GGGTATCA: -0.162
GCCTCCCA: -0.185
CCTTTGTC: -0.172
CGTGTAGA: -0.0135
GAACGACC: -0.0927
ACGTTCCA: -0.0953

Series 2
Target: Interferon regulatory factor 5, full length, phosphomimetic (IRF5, Homo sapiens, UniProt Q13568-2, residues 1-514, K96S/S451D/S453D/S456D/S462D)
Method: protein-binding microarray
Molecule type: double-stranded DNA, one strand shown
Sample: in vitro
Concentration: 250 nM
Notes: 60-bp whole probe
With: salmon DNA 0.4 mg/ml
Reference: random background probes
Reading: higher = stronger binding
Endpoint: log fluorescence
Shared flanks, not repeated: GCCTAGCAC … GTCTTGATTCGCTTGACGCTGCTG
TTAGGACTGGTCTATCGGTTAGTGCTA: 2.36 z-score
GACGGAATCGGACTGGGGACGTGCTAG: -0.0269 z-score
GACGATTTCAGTATCGAGACGTGCTAG: 3.74 z-score
TTAGATATCAGCCTGGATTAGTGCTAG: 0.334 z-score
GACGGACAGGACACTGGGGACGTGCTA: -0.56 z-score
GACGGTCTCGCACTGGGGACGTGCTAG: -0.261 z-score
CACCAGCGAGGGCCCGGGAGGTGCTAG: -0.931 z-score
TCATGTTTGAGTCTTCTACTGTGCTAG: 0.383 z-score
TTAGATATCGGGTTTCGATTTGTGCTA: 7.29 z-score
GACGATATAAGTATCGAGACGTGCTAG: 2.19 z-score
GACGATATCAGACTCGAGACGTGCTAG: 0.577 z-score
AAGCTTCTGGTCTTCTGGACGTGCTAG: 0.0391 z-score
GACGGACTGGGTTTCGAGACGTGCTAG: 1.35 z-score
TTAGGTCTCGGGTATCGGTTAGTGCTA: 3.4 z-score
GACGGTTTCTACACTGGGGACGTGCTA: 0.625 z-score
GACGGAATGGGTATCGGGACGTGCTAG: 0.608 z-score
GGGCATTTGGTTAGCGTATAGTGCTAG: -0.435 z-score
GACGGTCTCCTACTGCTAACGTGCTAG: -0.456 z-score
TCACTTTTCATTTTCTTACTGTGCTAG: 2.54 z-score

Series 3
Target: Ras GTPase-activating protein-binding protein 1, RRM domain (G3BP1, Homo sapiens, UniProt Q13283)
Chain of UniProt Q13283 (whole entry, looked up): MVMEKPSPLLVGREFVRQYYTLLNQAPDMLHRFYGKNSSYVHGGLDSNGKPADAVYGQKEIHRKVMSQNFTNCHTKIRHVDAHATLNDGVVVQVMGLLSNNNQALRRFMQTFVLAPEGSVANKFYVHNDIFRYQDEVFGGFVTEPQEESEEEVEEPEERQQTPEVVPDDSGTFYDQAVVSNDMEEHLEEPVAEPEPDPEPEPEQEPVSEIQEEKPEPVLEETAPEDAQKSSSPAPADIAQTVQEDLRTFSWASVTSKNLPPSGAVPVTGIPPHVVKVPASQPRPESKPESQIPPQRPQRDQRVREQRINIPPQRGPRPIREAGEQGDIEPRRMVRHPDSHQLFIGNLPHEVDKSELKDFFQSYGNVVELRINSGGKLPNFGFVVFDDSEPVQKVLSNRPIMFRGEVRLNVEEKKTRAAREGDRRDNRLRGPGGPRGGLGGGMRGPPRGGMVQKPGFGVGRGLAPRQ
Method: RNA Bind-n-Seq
Molecule type: RNA
Sample: in vitro
Concentration: 1 µM
Notes: whole 134-nt RNA, ends assumed
With: 150 mM KCl
Reference: input library
Reading: higher = stronger binding
Endpoint: log2 enrichment
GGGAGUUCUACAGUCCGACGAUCUCAAGUCCUGUGCUACACAUCGUAUGUACCGAAUCGGUUUGGAAAGGUUUUUGGAAAGUAUUAUGUUACGCCGUUCGGAUCUGCACUUCCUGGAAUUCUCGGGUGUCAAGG: -0.188
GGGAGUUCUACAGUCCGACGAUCUGUGCUACACAUCGUAUGUACCGAAUCGGGGAAAAAAAGGGAAAAAAAGGGGAAAAAAAGGGAAAGUAUUAUGUUACGCCGUUCGGAUCUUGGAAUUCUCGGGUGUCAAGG: 0.214
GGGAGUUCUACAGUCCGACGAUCCUGUGCUACACAUCGUAUGUACCGAAUCGGGGAAAAAAAGGGGUUUUUUUGGGGUUUGGGGAAAGUAUUAUGUUACGCCGUUCGGAUCUGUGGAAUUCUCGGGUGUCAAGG: 0.695
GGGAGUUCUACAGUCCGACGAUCUGGCCCUGGUGGCAUGCGGGGAGGAAGAGGUGGCCUCACGGAUCGUGGUGGUCCCGGUGGAAUGUUCAGAGGUGGCCGUGGUGGAGACAGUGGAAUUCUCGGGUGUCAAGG: 0.946
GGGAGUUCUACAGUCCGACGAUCUCAAGUCCUGUGCUACACAUCGUAUGUACCGAAUCGGAAAGGAAAGGGAAAGGGGAAAGUAUUAUGUUACGCCGUUCGGAUCUGCACUUCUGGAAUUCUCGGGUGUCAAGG: -0.159
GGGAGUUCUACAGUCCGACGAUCAGUCCUGUGCUACACAUCGUAUGUACCGAAUCGGGGAAAAGGGGAAAAGGGAAAAGGGAAAGUAUUAUGUUACGCCGUUCGGAUCUGCACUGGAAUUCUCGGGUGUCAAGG: 0.39
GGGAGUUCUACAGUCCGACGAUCCCUGUGCUACACAUCGUAUGUACCGAAUCGGGGUUUUUUGGGUUUUUUGGGUUUUUUGGGAAAGUAUUAUGUUACGCCGUUCGGAUCUGCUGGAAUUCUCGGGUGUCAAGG: -0.236
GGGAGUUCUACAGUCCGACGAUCUAACUUUAGAGGAGGAUCUGAGGGAUAUGGCAGUGGACGUGGAUUUGGGGAUGGCUAUAAUGGGUAUGGAGGAGGACCUGGAGGUGGCAAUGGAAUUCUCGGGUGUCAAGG: -0.414
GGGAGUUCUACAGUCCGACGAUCAAGUCCUGUGCUACACAUCGUAUGUACCGAAUCGGUUUUGGGUUUUGGUUUUGGGGAAAGUAUUAUGUUACGCCGUUCGGAUCUGCACUUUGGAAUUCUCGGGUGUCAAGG: -0.188

Series 4
Target: RNA binding protein fox-1 homolog 2, RRM domain, GST-SBP tag (RBFOX2, Homo sapiens, UniProt O43251-10, residues 100-194)
Method: RNA Bind-n-Seq
Molecule type: RNA
Sample: in vitro
Concentration: 365 nM
Notes: natural RNA segment, single round, ends assumed
Reference: no-protein control
Reading: higher = stronger binding
Endpoint: RBNS enrichment (R)
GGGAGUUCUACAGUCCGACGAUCUUCUUUCCUCCCACUUCCACCCCAACAUAGAGUAGUAUUUGCUUUUUAGUCCAUUUUGUUUUCAAUACGAUUUAAUAUCGAUCAGAGUAAUUCUUUUGUACAUUGAAAUGUGGAAUUCUCGGGUGCCAA: 0.597
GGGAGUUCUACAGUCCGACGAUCCCAUUGCUAGGGAGAGACUUCCAGUAAUAAAAUUUACUAUUCUAGAUGCUUCUACUGUUAUGUUUUAUCUGCCCAUUUAUCUUUCUUAGUUACCAGGAGAAAUGUGUGACUGGAAUUCUCGGGUGCCAA: 1.95
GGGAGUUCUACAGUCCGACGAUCUGCUAGUGCUGACGAUGUUCUGUACAACUUAACUCACUGGCGAGAAUACAGCGUGGGACCCUUCAGCCACUACAACAGAAUUUUUUAAAUUGACAGUUGCAGAAUUGUGGUGGAAUUCUCGGGUGCCAA: 0.502
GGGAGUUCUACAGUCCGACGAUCCCAUGAUAGUACCAGGGACAGGUUUUAAUAGAAAUUUAAGCUAUUUGUAUUACGAACAUAGGAGUGUCCACAUGUUGUUGUAACUCUGUCCUGCAAGAGCAGGUAUUCCAUGGAAUUCUCGGGUGCCAA: 0.629
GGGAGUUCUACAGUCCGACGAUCAAGAAAAUUCUAGCCAUGACCAGUGGUCCCUCAGAGCUAACCAUCUCUGAGGCAUUGUGGUGGUCCCUUGUCUGAUAAAUAAAUAAUGAAUAAAUAAAAGUUAUAUCAGAUGGAAUUCUCGGGUGCCAA: 0.413
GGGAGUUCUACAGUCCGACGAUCAUUGAUUACAUUUUUGGUGAUCACCGAGAAUUUUUUGUACUAUAUUUUAAAAAAUGUAUUCUACUGUAACAAGUUAAUAAAGAGAUUUUUUAAAAAACUAUAAACUAGAAUGGAAUUCUCGGGUGCCAA: 1.54
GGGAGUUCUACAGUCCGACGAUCUGCAGCCCUCUCAGAACAGAGGGGUAGGGAGGGUGCACCAGUGCACCAGGAAGGCUGUGUGGGUCUGGAGCCCACGUCCCACCUCCACACCCUUGGCUUGGGCCCAUGCCUGGAAUUCUCGGGUGCCAA: 0.87
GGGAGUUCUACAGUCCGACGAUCCUUAAGUUGUAAAAAUUGAGAGUACAAUAUCUUUAGGGAUAGUCAUUAUUUCUCACAACUAGUUCUCUACGAGAGAUUUUGUUUCUACAAUGUAGUCAGCACUUAAUGGAUGGAAUUCUCGGGUGCCAA: 0.465

Excerpt of the above (series 4):
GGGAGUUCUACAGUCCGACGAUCAAGAAAAUUCUAGCCAUGACCAGUGGUCCCUCAGAGCUAACCAUCUCUGAGGCAUUGUGGUGGUCCCUUGUCUGAUAAAUAAAUAAUGAAUAAAUAAAAGUUAUAUCAGAUGGAAUUCUCGGGUGCCAA: 0.413
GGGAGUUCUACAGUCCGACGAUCUGCAGCCCUCUCAGAACAGAGGGGUAGGGAGGGUGCACCAGUGCACCAGGAAGGCUGUGUGGGUCUGGAGCCCACGUCCCACCUCCACACCCUUGGCUUGGGCCCAUGCCUGGAAUUCUCGGGUGCCAA: 0.87
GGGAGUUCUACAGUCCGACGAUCAUUGAUUACAUUUUUGGUGAUCACCGAGAAUUUUUUGUACUAUAUUUUAAAAAAUGUAUUCUACUGUAACAAGUUAAUAAAGAGAUUUUUUAAAAAACUAUAAACUAGAAUGGAAUUCUCGGGUGCCAA: 1.54
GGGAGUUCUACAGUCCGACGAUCUUCUUUCCUCCCACUUCCACCCCAACAUAGAGUAGUAUUUGCUUUUUAGUCCAUUUUGUUUUCAAUACGAUUUAAUAUCGAUCAGAGUAAUUCUUUUGUACAUUGAAAUGUGGAAUUCUCGGGUGCCAA: 0.597
